Assay results pooled from the literature.
A part holds a random share of what one study measured.
UniProt Q00534, sequence (whole entry, looked up): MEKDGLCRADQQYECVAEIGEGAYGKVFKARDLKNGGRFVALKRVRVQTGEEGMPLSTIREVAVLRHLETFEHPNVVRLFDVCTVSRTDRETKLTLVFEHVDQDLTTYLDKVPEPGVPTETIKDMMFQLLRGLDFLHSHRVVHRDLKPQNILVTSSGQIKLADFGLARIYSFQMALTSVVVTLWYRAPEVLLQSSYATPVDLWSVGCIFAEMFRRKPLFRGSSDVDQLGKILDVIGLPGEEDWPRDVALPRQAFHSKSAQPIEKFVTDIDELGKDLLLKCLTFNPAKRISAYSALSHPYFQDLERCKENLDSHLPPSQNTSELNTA
UniProt P49336, sequence (whole entry, looked up): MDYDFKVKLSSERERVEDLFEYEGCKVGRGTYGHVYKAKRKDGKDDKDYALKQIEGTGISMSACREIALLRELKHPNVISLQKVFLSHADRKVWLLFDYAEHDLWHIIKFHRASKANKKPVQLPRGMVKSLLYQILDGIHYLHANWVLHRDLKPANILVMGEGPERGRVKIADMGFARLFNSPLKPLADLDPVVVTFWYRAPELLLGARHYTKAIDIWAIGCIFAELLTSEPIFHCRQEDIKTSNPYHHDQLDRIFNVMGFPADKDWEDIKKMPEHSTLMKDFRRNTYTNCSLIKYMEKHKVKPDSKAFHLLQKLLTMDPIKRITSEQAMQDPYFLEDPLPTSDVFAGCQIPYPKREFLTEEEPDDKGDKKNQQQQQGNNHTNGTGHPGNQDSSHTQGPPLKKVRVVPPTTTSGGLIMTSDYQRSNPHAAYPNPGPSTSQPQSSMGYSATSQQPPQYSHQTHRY
UniProt O15530, sequence (whole entry, looked up): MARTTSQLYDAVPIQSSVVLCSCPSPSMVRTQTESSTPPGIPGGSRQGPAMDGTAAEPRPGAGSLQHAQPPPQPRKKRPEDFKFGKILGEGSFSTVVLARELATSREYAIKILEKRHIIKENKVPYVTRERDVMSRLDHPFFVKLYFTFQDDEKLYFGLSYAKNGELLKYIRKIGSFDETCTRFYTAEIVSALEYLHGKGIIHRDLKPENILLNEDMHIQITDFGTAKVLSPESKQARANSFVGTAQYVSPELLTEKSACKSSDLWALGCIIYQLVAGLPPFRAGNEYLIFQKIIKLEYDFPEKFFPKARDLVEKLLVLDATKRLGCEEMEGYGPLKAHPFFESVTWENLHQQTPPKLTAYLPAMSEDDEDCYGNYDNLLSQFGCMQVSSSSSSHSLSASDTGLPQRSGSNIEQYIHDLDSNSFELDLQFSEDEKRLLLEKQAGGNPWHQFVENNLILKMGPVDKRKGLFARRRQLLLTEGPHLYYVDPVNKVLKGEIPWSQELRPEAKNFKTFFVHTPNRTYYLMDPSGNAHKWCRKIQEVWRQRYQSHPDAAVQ
UniProt O43283, sequence (whole entry, looked up): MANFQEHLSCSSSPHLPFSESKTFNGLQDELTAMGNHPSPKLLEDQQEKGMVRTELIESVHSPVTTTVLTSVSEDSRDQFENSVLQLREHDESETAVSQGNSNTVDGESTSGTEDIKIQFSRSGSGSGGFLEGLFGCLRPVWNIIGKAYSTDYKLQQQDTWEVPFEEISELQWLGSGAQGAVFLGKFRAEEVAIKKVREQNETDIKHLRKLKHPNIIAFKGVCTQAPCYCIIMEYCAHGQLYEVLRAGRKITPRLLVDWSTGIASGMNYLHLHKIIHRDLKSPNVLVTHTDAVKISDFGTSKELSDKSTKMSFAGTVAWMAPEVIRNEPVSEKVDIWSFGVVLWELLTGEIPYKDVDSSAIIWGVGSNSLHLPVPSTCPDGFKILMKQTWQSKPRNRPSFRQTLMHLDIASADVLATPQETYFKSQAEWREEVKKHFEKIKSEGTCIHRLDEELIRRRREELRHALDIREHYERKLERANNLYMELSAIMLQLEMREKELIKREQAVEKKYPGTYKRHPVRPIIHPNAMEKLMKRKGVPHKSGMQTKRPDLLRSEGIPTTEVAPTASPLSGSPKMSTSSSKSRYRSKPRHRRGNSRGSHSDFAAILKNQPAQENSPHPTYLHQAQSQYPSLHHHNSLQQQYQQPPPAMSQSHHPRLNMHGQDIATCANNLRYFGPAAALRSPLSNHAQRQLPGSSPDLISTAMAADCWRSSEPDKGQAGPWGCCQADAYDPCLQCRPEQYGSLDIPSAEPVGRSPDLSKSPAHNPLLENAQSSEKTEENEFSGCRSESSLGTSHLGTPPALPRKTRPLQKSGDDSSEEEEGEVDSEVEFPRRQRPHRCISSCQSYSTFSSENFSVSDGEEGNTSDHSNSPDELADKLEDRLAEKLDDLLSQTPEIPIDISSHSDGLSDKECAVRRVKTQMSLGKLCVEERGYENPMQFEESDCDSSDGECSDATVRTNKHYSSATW
UniProt O75914, sequence (whole entry, looked up): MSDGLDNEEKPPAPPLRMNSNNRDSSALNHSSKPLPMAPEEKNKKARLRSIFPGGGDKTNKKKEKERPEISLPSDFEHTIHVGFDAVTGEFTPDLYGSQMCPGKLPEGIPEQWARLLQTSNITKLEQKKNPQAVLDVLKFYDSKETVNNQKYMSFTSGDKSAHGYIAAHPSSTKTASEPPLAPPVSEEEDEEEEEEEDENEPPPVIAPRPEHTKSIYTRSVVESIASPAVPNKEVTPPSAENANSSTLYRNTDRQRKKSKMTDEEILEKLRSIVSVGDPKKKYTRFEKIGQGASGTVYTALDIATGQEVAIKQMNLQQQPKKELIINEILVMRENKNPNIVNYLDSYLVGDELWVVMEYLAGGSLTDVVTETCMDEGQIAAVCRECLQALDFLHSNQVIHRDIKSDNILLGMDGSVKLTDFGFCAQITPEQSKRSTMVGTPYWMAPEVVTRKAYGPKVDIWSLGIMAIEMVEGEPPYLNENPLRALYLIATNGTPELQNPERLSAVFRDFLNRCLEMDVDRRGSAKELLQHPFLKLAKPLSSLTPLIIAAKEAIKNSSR
UniProt O14936, sequence (whole entry, looked up): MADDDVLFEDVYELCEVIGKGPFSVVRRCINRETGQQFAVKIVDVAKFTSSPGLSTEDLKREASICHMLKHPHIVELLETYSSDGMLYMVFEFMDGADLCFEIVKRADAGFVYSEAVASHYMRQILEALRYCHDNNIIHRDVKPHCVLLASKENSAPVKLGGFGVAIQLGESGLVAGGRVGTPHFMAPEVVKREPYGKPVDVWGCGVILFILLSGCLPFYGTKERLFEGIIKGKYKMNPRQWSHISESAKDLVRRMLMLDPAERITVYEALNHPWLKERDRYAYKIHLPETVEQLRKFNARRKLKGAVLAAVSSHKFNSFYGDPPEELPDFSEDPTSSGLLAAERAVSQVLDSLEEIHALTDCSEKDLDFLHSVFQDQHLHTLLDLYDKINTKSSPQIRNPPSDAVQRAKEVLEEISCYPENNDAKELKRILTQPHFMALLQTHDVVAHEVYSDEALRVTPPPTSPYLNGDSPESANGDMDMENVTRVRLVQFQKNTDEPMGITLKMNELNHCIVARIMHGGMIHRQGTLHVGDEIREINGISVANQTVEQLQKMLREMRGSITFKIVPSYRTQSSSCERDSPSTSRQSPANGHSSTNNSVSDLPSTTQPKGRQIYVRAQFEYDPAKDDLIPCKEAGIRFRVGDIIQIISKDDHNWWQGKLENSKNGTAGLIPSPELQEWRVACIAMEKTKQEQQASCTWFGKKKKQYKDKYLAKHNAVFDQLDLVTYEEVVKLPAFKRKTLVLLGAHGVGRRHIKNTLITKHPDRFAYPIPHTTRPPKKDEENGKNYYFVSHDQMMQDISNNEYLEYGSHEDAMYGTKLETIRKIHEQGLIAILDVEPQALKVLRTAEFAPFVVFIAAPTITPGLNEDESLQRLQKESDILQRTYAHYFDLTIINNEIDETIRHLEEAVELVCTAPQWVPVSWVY

Block 1 — organism: Sarcocystis neurona; observed: parasite growth; tested at: 10 µM; setting: secondary screen; endpoint: inhibition
CN(C)[C@@H]1C(O)=C(C(N)=O)C(=O)[C@@]2(O)C(O)=C3C(=O)c4c(O)ccc(Cl)c4[C@@H](O)[C@H]3C[C@@H]12: -2.3%
O=C(NCCN1CCOCC1)c1ccc(Cl)cc1: -37.2%
O=C(O)CCCc1ccccc1: -30.9%
OC(CCN1CCCC1)(c1ccccc1)C1CCCCC1 (stereo not shown): -3.2%
CN(C)CCN(Cc1ccccc1)c1ccccn1: -31.5%
CCCc1nc(C(C)(C)O)c(C(=O)OCc2oc(=O)oc2C)n1Cc1ccc(-c2ccccc2-c2nnn[nH]2)cc1: 1.2%
C[N+]1(C)CCC(OC(=O)C(O)(c2ccccc2)C2CCCC2)C1 (stereo not shown): -53.2%
CC(C)(C(=O)c1cccnc1)c1cccnc1: -43.3%
Nc1ccn([C@@H]2CS[C@H](CO)O2)c(=O)n1: -39.9%
[H]/N=C(/NCCCCC)N/N=C/c1c[nH]c2ccc(OC)cc12: 98.7%

Block 2 — observed: cell-free assay; technique: competition with immobilised ligand; tested at: 1 µM; endpoint: remaining binding
SMILES: Cc1nccc(COC(=O)N2C[C@@H]3[C@@H](CNC(=O)c4ccc5[nH]nnc5c4)[C@@H]3C2)n1
CDK8 (Homo sapiens, UniProt P49336): 75%
ULK3 (Homo sapiens, UniProt Q6PHR2): 100%
ERBB2 (Homo sapiens, UniProt P04626): 99%
MARK3 (Homo sapiens, UniProt P27448): 95%
MAP3K13 (Homo sapiens, UniProt O43283): 65%
CASK (Homo sapiens, UniProt O14936): 72%
PAK3 (Homo sapiens, UniProt O75914): 75%
PHKG2 (Homo sapiens, UniProt P15735): 97%
PRKAA2 (Homo sapiens, UniProt P54646): 97%
MAP3K2 (Homo sapiens, UniProt Q9Y2U5): 100%
WNK2 (Homo sapiens, UniProt Q9Y3S1): 79%
Tyrosine-protein kinase ABL1, non-phosphorylated (ABL1, Homo sapiens, UniProt P00519, Q252H): 100%
RIOK2 (Homo sapiens, UniProt Q9BVS4): 97%
Tyrosine-protein kinase ABL1, phosphorylated (ABL1, Homo sapiens, UniProt P00519, T315I): 95%
GRK3 (Homo sapiens, UniProt P35626): 70%
CSK (Homo sapiens, UniProt P41240): 99%
MAPK10 (Homo sapiens, UniProt P53779): 100%

Block 3 — observed: enzyme activity; action: inhibitor; tested at: 0.5 µM; relative to: control; endpoint: remaining activity
SMILES: Cc1cn(-c2cc(NC(=O)c3ccc(C)c(Nc4nccc(-c5cccnc5)n4)c3)cc(C(F)(F)F)c2)cn1
CAMK2B (Homo sapiens, UniProt Q13554): 95%
WNK3 (Homo sapiens, UniProt Q9BYP7): 100%
Cyclin-dependent kinase 1, with cyclin B (CDK1, Homo sapiens, UniProt P06493): 97.8%
Cyclin-dependent kinase 6, with cyclin D3 (CDK6, Homo sapiens, UniProt Q00534): 128%
PRKACG (Homo sapiens, UniProt P22612): 113%
EPHB1 (Homo sapiens, UniProt P54762): 10.6%
BLK (Homo sapiens, UniProt P51451): 87.6%
PDPK1 (Homo sapiens, UniProt O15530): 84.6%
Cyclin-dependent kinase 4, with cyclin D3 (CDK4, Homo sapiens, UniProt P11802): 108%
TSSK2 (Homo sapiens, UniProt Q96PF2): 73.5%
RPS6KA6 (Homo sapiens, UniProt Q9UK32): 99%
MAPKAPK3 (Homo sapiens, UniProt Q16644): 102%

Block 4 — technique: PRP chromatography estimate; medium: 1,9-decadiene/PBS; pH: 7.4; endpoint: logD
CC(C)C[C@@H]1NC(=O)[C@H](CC(C)C)NC(=O)[C@@H](CC(C)C)NC(=O)[C@H](C)NC(=O)[C@@H](CCC(=O)N2CCCC2)NC(=O)[C@H](C)NC(=O)[C@H](C)NC1=O: -3.36
CC(C)C[C@@H]1NC(=O)[C@H](C)NC(=O)[C@H](C)NC(=O)[C@H](CC(C)C)NC(=O)[C@H](C(C)C)NC(=O)[C@H](CC(C)C)NC(=O)[C@@H](CC(C)C)NC1=O: -0.968
CC(C)C[C@@H]1NC(=O)[C@H](C)NC(=O)[C@@H](CC(C)C)NC(=O)[C@H](C(C)C)NC(=O)[C@H](CC(C)C)NC(=O)[C@@H](CC(C)C)NC(=O)[C@H](CC(C)C)NC1=O: 0.87
CC(C)C[C@@H]1NC(=O)[C@H](CC(C)C)NC(=O)[C@@H](CC(C)C)NC(=O)[C@H](CC(C)C)NC(=O)[C@H](C(C)C)NC(=O)[C@H](C)NC(=O)[C@H](C)NC1=O: -0.7
CC(C)C[C@@H]1NC(=O)[C@H](C)NC(=O)[C@H](C)NC(=O)[C@H](C)NC(=O)[C@H](C(C)C)NC(=O)[C@H](CC(C)C)NC(=O)[C@@H](CC(C)C)NC1=O: -2.59
CC(C)C[C@@H]1NC(=O)[C@H](C)NC(=O)[C@@H](CC(C)C)NC(=O)[C@@H](CC(C)C)NC(=O)[C@H](C(C)C)NC(=O)[C@H](CC(C)C)NC(=O)[C@@H](CC(C)C)NC1=O: 1.25
CC(C)C[C@@H]1NC(=O)[C@H](C)NC(=O)[C@@H](CC(C)C)NC(=O)[C@H](C)NC(=O)[C@H](CC(C)C)NC(=O)[C@H](CC(C)C)NC(=O)[C@@H](C(C)C)NC1=O: -0.696
CC(C)C[C@@H]1NC(=O)[C@H](CC(C)C)NC(=O)[C@@H](C(C)C)NC(=O)[C@H](CC(C)C)NC(=O)[C@H](C(C)C)NC(=O)[C@H](Cc2cscn2)NC(=O)[C@H](C)NC1=O: -0.738
CC(C)C[C@@H]1NC(=O)[C@H](CC(C)C)NC(=O)[C@@H](C(C)C)NC(=O)[C@H](CC(C)C)NC(=O)[C@@H](Cc2cscn2)NC(=O)[C@H](C)NC(=O)[C@H](CCC(=O)N2CCCC2)NC1=O: -2.14
CC(C)C[C@@H]1NC(=O)[C@@H](C)NC(=O)[C@H](CCC(=O)N2CCCC2)NC(=O)[C@H](C)NC(=O)[C@H](C(C)C)NC(=O)[C@H](CC(C)C)NC(=O)[C@@H](CC(C)C)NC1=O: -2.32

Repeated from above (block 3):
PRKACG (Homo sapiens, UniProt P22612): 113%
PDPK1 (Homo sapiens, UniProt O15530): 84.6%
MAPKAPK3 (Homo sapiens, UniProt Q16644): 102%
TSSK2 (Homo sapiens, UniProt Q96PF2): 73.5%
CAMK2B (Homo sapiens, UniProt Q13554): 95%
WNK3 (Homo sapiens, UniProt Q9BYP7): 100%
